# Measured values of several laboratories.
# Each line is one published result; not all experiments were run side by side.
# Target: Serine/threonine-protein kinase PLK2 (PLK2, Homo sapiens, UniProt Q9NYY3)
assay,system,conditions,how to read,endpoint,result,SMILES
"enzyme activity, inhibitor",,1 µM,,inhibition,2%,CN1CC[C@@H](COc2cnc(C#N)cc2-c2ccn3nc(NC(=O)C4CC4)cc3c2)C1
enzyme activity,,"100 nM, human enzyme, with: 10 µM ATP",relative to: untreated,remaining activity,96%,O=C=[N][Ru-4]123([n]4c5ccc(O)cc5c5c6c(c7cc(F)c[n+]1c7c54)C(=O)NC6=O)[S+]1CC[S+]2CC[S+]3CC1 (stereo not drawn)
KINOMEscan,,1 µM,relative to: DMSO control,remaining binding,83%,C=CC(=O)N1CCc2ccc(-n3c(=O)ccc4cnc5ccc(-c6cnn(C)c6)cc5c43)cc21
cell-free assay,,0.1 µM,,remaining signal,90%,Cc1cnc2nc1Nc1cccc(c1)COC/C=C/COCc1cc(ccc1OCCN1CCOCC1)N2
"binding, competition with immobilised ligand",,1 µM,,remaining binding,87%,Nc1ncc2c(n1)-c1c([nH]c3ccc(C4=CCOCC4)cc13)CCC2
"kinase activity, inhibitor",,1 µM,relative to: untreated control,remaining activity,111%,COc1c(OCCCN2CCOCC2)ccc2c1N=C(NC(=O)c1cnc(N)nc1)N1CCN=C21
kinase activity,,"0.1 µM, with: ATP at Km",,inhibition,-11.2%,CCn1cc(C(=O)O)c(=O)c2c(N)c(F)c(NC3CCCCC3)cc21
"enzyme activity, inhibitor",,1 µM,,inhibition,51%,Cc1nc2c(F)cc(-c3nc(Nc4ccc(CNC(=O)CCCCCCC(=O)NO)cc4)ncc3F)cc2n1C(C)C
"binding, competition with immobilised ligand",,0.2 µM,,inhibition,5.87%,COc1ccc(O)cc1-c1c[nH]c2ncc(-c3cncc(C(=O)N(C)C)c3)cc12
"enzyme activity, inhibitor",,10 µM,,inhibition,6.73%,COc1cc(-n2cc3cc(F)cc(C(N)=O)c3n2)cc(Cl)c1C1CC(O)(CCO)Cc2ccccc21 (stereo not drawn)
"binding, competition with immobilised ligand",,1 µM,,remaining binding,100%,COc1cc(Nc2nccc(-c3cnn4nc(OC)ccc34)n2)cc(C(F)(F)F)c1
"binding, competition with immobilised ligand",,3 µM,,remaining binding,97%,COc1c(Cl)cccc1Nc1c(-c2ccncc2C#C[C@@]2(C)CCCN2C(=O)/C=C/CN(C)C)[nH]c2c1C(=O)NCC2
"enzyme activity, inhibitor",,10 µM,,activity vs control,99%,O=C(Cc1ccc(OCc2ccccc2)cc1)NC1(C(=O)O)CCN(C(=O)c2ccc(-c3cccc(Cl)c3)cc2)CC1
"enzyme activity, inhibitor",,10 µM,,inhibition,3%,NC(=O)C[C@H]1CCc2sc3ncnc(O[C@H]4CC[C@H](N5CCOCC5)CC4)c3c21
"inhibitor, KiNativ profiling",biochemical,2 µM,,inhibition,21.1%,C=CC(=O)Nc1cc(-c2nn(C3CCN(CCNC(=O)[C@H](C)CCC45CC6CC(CC(C6)C4)C5)CC3)c3ncnc(N)c23)ccc1Oc1ccccc1

# Repeated from above:
assay,system,conditions,how to read,endpoint,result,SMILES
cell-free assay,,0.1 µM,,remaining signal,90%,Cc1cnc2nc1Nc1cccc(c1)COC/C=C/COCc1cc(ccc1OCCN1CCOCC1)N2
